Measured values gathered from unrelated publications.
Compare with care: the assays were run in different laboratories. ± gives the spread as reported.

| SMILES | assay | system | setting | tissue uptake [%ID/g] |
| --- | --- | --- | --- | --- |
| CC[C@H](C)[C@H](NC(=O)[C@H](CCCNC(=N)N)NC(=O)[C@H](CCCCN)NC(=O)[C@H](Cc1ccc(O)cc1)NC(=O)[C@H](CC(=O)O)NC(=O)[C@H](C)NC(=O)CNC(=O)CCOCCOCCOCCNC(=O)CN1CCN(CC(=O)O)CCN(CC(=O)O)CCN(CC(=O)O)CC1)C(=O)N[C@H](C(=O)N[C@H](C(=O)N[C@@H](CCCCN)C(=O)N[C@H](C(=O)N[C@@H](CC(N)=O)C(N)=O)C(C)C)C(C)C)[C@@H](C)O [copper-64 labelled] | ex vivo gamma counting | C57BL/6J male mice, B16-F10 tumour, testis | intravenous, 1.85 MBq, 5 min | 1.15 ± 0.398 |
| CC[C@H](C)[C@H](NC(=O)[C@H](CCCCN)NC(=O)CNC(=O)[C@H](CC(C)C)NC(=O)[C@H](Cc1ccccc1)NC(=O)[C@H](CCCCN)NC(=O)[C@H](CO)NC(=O)[C@H](Cc1ccccc1)NC(=O)[C@H](Cc1c[nH]c2ccccc12)NC(=O)[C@H](CCC(N)=O)NC(=O)[C@@H](NC(=O)[C@H](Cc1ccccc1)NC(=O)CCCCCNC(=O)CN1CCN(CC(=O)O)CCN(CC(=O)O)CCN(CC(=O)O)CC1)C(C)C)C(=O)N[C@@H](CCC(=O)O)C(=O)N1CCC[C@H]1C(=O)N[C@@H](CC(=O)O)C(=O)N[C@H](C(=O)N[C@@H](CO)C(=O)N[C@@H](CCC(N)=O)C(=O)N[C@H](C(=O)N[C@@H](CCC(N)=O)C(=O)N[C@@H](CC(=O)O)C(=O)N1CCC[C@H]1C(=O)N[C@@H](CC(N)=O)C(=O)N[C@@H](CC(=O)O)C(=O)N[C@@H](CCC(N)=O)C(=O)N[C@@H](Cc1ccc(O)cc1)C(=O)N[C@@H](CCC(=O)O)C(=O)N1CCC[C@H]1C(=O)N[C@@H](Cc1ccccc1)C(=O)O)C(C)C)C(C)C [copper-64 labelled] |  | BALB/c mice, male, CT26 tumour-bearing, small intestine | 2 h, vehicle-treated | 3.96 ± 0.6 |
| CC[C@H](C)[C@H](NC(=O)[C@@H](Cc1c[nH]c2ccccc12)NC(=O)[C@@H]1CCCN1C(=O)[C@H](CCCCN)NC(=O)[C@H](CCCCN)NC(=O)CCNC(=O)CCNC(=O)CN1CCN(CC(=O)O)CCN(CC(=O)O)CCN(CC(=O)O)CC1)C(=O)N[C@@H](C[Si](C)(C)C)C(=O)O [gallium-68 labelled] | ex vivo biodistribution | nude mice, HT-29 xenograft, liver | 90 min, added: levocabastine 0.5 µmol | 0.37 ± 0.11 |
| CCCC[C@H]1C(=O)N(C)[C@@H](CCCC)C(=O)N[C@@H](CCCNC(=O)CN2CCN(CC(=O)O)CCN(CC(=O)O)CCN(CC(=O)O)CC2)C(=O)N[C@H](C(=O)NCC(N)=O)CSCC(=O)N[C@@H](Cc2ccc(O)cc2)C(=O)N(C)[C@@H](C)C(=O)N[C@@H](CC(N)=O)C(=O)N2CCC[C@H]2C(=O)N[C@@H](Cc2c[nH]cn2)C(=O)N[C@@H](CC(C)C)C(=O)N(C)CC(=O)N[C@@H](Cc2c[nH]c3ccccc23)C(=O)N[C@@H](CO)C(=O)N[C@@H](Cc2c[nH]c3ccccc23)C(=O)N1C [gallium-68 labelled] |  | NOD/SCID mice with CHO-hPD-L1 xenograft, skin | 120 min post injection | 4.03 ± 1.58 |
| CC(C)C[C@@H](NC(=O)[C@@H](CCCNC(=N)N)NC(=O)[C@@H](Cc1c[nH]cn1)NC(=O)[C@@H](Cc1c[nH]c2ccccc12)NC(=O)[C@@H](Cc1c[nH]cn1)NC(=O)[C@@H](Cc1ccccc1)NC(=O)[C@H](NC(=O)[C@@H](Cc1ccc(O)cc1)NC(=O)CNC(=O)CNC(=O)CCOCCOCCOCCNC(=O)CN1CCN(CC(=O)O)CCN(CC(=O)O)CC1)[C@H](C)O)C(=O)N[C@H](CC(N)=O)C(=O)N1CCC[C@@H]1C(=O)O [gallium-68 labelled] | gamma counting | C57BL/6 mice, male, lung | intravenous, 1.85 MBq, 30 min | 1.14 ± 0.14 |
| CSCC[C@H](NC(=O)CNC(=O)[C@H](CCCCN)NC(=O)[C@H](CC(C)C)NC(=O)[C@@H]1CCCN1C(=O)[C@H](CO)NC(=O)[C@H](Cc1c[nH]cn1)NC(=O)[C@H](Cc1c[nH]c2ccccc12)NC(=O)[C@H](CCCNC(=N)N)NC(=O)[C@H](CC(C)C)NC(=O)[C@H](CCCNC(=N)N)NC(=O)[C@H](Cc1c[nH]c2ccccc12)NC(=O)[C@H](CS)NC(=O)CCCCCNC(=O)CN1CCN(CC(=O)O)CCN(CC(=O)O)CCN(CC(=O)O)CC1)C(=O)O [copper-64 labelled] | PET imaging | C57BL/6J mice bearing B16-F10 tumours, tumor | intravenous, 57.5 min | 1.69 ± 0.13 |
| C[C@H](O)[C@@H](NC(=O)[C@H]1CCCN1C(=O)[C@@H](CCCCN)NC(=O)[C@@H](CO)NC(=O)[C@@H](Cc1ccc(O)cc1)NC(=O)[C@@H](CC(N)=O)NC(=O)CCOCCOCCOCCNC(=O)CN1CCN(CC(=O)O)CCN(CC(=O)O)CCN(CC(=O)O)CC1)C(=O)N[C@H](CC(=O)O)C(=O)N[C@H](CCCNC(=N)N)C(=O)N[C@H](CCC(N)=O)C(=O)N[C@H](Cc1ccc(O)cc1)C(=O)N[C@H](Cc1c[nH]cn1)C(=O)N[C@H](Cc1ccccc1)C(N)=O [copper-64 labelled] |  | C57BL/6J mice, stomach | intravenous, 1.85 MBq, 1.333 h, radiolabelled | 0.62 ± 0.24 |
| CC[C@H](C)[C@H](NC(=O)[C@H](CCCNC(=N)N)NC(=O)[C@H](CCCCN)NC(=O)[C@H](Cc1ccc(O)cc1)NC(=O)[C@H](CC(=O)O)NC(=O)[C@H](C)NC(=O)CNC(=O)CCOCCOCCOCCNC(=O)CN1CCN(CC(=O)O)CCN(CC(=O)O)CCN(CC(=O)O)CC1)C(=O)N[C@H](C(=O)N[C@@H](CC(C)C)C(=O)N[C@@H](CCCCN)C(=O)N[C@H](C(=O)N[C@@H](CC(N)=O)C(N)=O)C(C)C)[C@@H](C)O [copper-64 labelled] | ex vivo gamma counting | C57BL/6J male mice, B16-F10 tumour, stomach | intravenous, 1.85 MBq, 20 min | 1.26 ± 0.592 |

Some of these lines once more:
| SMILES | assay | system | setting | tissue uptake [%ID/g] |
| --- | --- | --- | --- | --- |
| C[C@H](O)[C@@H](NC(=O)[C@H]1CCCN1C(=O)[C@@H](CCCCN)NC(=O)[C@@H](CO)NC(=O)[C@@H](Cc1ccc(O)cc1)NC(=O)[C@@H](CC(N)=O)NC(=O)CCOCCOCCOCCNC(=O)CN1CCN(CC(=O)O)CCN(CC(=O)O)CCN(CC(=O)O)CC1)C(=O)N[C@H](CC(=O)O)C(=O)N[C@H](CCCNC(=N)N)C(=O)N[C@H](CCC(N)=O)C(=O)N[C@H](Cc1ccc(O)cc1)C(=O)N[C@H](Cc1c[nH]cn1)C(=O)N[C@H](Cc1ccccc1)C(N)=O [copper-64 labelled] |  | C57BL/6J mice, stomach | intravenous, 1.85 MBq, 1.333 h, radiolabelled | 0.62 ± 0.24 |
